Results gathered from unrelated publications.
Compare with care: the assays were run in different laboratories. Numbers after ± are the reported error.
Tripartite terminase subunit 3 C-terminal nuclease domain: Tripartite terminase subunit 3, C-terminal nuclease domain (Human betaherpesvirus 5, UniProt P16732)
Chain of UniProt P16732 (whole entry, looked up): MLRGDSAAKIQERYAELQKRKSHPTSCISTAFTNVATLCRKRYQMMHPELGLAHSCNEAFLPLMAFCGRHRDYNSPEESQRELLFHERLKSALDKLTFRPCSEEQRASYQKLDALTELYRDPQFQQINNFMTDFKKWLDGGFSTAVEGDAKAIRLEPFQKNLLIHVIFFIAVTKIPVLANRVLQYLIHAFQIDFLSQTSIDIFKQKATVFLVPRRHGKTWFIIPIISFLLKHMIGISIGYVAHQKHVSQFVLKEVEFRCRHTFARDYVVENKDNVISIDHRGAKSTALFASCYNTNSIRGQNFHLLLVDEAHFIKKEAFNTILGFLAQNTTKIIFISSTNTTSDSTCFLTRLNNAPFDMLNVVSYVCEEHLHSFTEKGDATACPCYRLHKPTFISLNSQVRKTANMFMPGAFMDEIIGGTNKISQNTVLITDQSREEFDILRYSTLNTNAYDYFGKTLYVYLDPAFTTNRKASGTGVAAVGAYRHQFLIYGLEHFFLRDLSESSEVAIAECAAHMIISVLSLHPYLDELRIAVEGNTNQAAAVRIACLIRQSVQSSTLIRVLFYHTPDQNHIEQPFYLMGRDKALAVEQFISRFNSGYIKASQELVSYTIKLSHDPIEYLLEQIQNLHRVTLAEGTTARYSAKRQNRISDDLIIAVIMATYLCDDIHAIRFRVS
IGHG1: Immunoglobulin heavy constant gamma 1 (IGHG1, Homo sapiens, UniProt P01857)
Chain of UniProt P18031 (whole entry, looked up): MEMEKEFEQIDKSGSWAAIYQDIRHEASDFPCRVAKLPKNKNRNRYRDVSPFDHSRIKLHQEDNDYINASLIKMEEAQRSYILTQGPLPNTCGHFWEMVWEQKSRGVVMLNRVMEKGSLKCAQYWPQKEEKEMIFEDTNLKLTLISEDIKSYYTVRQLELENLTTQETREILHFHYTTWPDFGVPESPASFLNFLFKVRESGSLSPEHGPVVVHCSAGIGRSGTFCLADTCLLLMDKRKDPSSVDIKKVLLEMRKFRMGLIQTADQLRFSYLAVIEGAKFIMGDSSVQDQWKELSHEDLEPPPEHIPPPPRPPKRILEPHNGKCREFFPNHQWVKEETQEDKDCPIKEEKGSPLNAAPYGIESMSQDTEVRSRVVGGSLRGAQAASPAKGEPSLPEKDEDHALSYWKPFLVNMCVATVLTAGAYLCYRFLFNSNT
Chain of UniProt Q07889 (whole entry, looked up): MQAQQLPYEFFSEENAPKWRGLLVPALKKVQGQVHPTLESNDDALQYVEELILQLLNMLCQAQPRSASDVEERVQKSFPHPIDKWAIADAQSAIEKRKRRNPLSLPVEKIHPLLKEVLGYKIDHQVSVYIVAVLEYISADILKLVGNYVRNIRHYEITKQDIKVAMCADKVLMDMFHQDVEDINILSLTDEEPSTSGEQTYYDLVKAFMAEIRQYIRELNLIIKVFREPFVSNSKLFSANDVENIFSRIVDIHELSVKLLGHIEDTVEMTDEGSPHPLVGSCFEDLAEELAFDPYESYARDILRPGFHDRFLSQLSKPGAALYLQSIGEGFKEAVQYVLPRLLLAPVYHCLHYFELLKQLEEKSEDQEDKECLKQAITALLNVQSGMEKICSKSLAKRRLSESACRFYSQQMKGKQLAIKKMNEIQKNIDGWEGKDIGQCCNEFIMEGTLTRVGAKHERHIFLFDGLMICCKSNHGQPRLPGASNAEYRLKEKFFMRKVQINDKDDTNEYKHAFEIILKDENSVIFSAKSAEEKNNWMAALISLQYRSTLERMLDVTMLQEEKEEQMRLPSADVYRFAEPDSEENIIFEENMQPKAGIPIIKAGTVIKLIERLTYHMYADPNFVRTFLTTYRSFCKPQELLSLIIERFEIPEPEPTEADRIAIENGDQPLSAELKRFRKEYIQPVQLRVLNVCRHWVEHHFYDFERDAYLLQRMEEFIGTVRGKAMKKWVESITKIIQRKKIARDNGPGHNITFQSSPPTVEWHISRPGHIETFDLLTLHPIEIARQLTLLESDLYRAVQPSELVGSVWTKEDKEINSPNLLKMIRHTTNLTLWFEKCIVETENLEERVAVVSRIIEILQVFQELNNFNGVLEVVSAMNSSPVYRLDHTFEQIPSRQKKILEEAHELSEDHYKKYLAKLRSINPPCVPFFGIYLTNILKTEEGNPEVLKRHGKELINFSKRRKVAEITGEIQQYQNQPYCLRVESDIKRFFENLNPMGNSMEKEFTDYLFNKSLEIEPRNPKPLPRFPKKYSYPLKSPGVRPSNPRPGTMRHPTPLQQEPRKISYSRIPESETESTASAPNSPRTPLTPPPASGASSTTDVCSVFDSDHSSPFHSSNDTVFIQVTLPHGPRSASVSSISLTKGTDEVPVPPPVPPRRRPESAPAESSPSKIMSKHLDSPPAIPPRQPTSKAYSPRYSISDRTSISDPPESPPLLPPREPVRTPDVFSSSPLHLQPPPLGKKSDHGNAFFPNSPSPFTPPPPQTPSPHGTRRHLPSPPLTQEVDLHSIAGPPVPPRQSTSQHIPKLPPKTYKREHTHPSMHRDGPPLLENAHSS
Chain of UniProt P0AFI5 (whole entry, looked up): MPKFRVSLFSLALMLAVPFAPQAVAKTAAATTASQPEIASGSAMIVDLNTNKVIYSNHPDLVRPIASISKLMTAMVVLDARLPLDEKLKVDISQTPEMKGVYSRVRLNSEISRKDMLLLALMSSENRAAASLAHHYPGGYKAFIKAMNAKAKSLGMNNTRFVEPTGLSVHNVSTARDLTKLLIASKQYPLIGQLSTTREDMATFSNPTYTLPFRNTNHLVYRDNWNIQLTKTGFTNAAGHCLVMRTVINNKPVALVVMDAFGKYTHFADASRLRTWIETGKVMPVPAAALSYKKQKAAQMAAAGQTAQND
Chain of UniProt P25021 (whole entry, looked up): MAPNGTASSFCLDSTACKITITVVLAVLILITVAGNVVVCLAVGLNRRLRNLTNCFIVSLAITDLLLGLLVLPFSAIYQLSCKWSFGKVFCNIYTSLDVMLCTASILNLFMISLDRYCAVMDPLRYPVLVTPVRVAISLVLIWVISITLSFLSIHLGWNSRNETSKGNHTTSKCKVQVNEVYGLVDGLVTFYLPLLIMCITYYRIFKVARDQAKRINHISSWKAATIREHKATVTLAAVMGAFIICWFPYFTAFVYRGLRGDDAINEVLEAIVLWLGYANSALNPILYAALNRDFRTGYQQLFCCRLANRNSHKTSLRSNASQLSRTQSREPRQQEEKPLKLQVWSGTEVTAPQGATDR
Chain of UniProt P0AC78 (whole entry, looked up): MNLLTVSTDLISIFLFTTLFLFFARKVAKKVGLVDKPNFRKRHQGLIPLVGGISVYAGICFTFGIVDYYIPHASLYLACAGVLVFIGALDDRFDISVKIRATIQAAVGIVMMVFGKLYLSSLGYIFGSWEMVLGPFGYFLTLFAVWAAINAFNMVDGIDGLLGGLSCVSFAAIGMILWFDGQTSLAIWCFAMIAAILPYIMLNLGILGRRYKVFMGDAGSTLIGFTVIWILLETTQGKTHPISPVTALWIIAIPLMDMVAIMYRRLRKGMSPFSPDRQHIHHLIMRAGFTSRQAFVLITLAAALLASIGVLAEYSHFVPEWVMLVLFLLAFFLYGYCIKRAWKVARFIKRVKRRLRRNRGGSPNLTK
Chain of UniProt P08575 (whole entry, looked up): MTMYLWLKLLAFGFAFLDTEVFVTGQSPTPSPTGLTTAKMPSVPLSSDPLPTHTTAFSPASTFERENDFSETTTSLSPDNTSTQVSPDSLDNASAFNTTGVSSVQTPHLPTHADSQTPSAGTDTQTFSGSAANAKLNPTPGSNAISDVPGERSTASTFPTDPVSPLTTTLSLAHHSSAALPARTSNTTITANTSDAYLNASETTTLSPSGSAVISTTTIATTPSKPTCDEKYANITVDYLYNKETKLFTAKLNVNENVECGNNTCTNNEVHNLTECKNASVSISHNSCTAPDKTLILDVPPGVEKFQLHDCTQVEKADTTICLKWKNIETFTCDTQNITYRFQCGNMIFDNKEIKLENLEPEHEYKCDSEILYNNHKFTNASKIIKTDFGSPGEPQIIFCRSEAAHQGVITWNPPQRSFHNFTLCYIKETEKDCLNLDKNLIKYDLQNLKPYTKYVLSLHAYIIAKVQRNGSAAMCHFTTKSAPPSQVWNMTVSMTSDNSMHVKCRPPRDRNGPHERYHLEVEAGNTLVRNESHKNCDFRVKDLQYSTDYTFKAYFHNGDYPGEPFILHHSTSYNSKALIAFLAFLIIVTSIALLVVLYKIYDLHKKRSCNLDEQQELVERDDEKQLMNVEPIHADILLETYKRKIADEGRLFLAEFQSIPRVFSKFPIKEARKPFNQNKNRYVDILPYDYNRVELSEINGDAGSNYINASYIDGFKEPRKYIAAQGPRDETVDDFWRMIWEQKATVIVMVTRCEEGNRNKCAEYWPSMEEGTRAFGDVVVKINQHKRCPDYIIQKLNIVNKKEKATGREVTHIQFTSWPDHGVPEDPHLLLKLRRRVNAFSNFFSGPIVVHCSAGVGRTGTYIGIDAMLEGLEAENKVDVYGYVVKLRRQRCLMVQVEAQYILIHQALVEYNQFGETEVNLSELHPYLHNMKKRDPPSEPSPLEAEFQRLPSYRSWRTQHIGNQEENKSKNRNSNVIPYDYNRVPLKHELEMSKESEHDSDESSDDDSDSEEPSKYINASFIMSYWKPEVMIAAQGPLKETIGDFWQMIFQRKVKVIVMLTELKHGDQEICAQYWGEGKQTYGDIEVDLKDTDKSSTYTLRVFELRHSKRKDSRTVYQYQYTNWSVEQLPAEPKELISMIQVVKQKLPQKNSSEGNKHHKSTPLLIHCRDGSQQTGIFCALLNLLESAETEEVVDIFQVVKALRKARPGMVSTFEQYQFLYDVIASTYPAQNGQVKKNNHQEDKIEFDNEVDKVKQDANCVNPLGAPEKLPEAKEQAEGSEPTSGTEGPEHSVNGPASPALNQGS

| SMILES | target | assay | test system | setting | endpoint | value |
| --- | --- | --- | --- | --- | --- | --- |
| CC(=O)[C@H]1CC[C@H]2[C@@H]3CCC4=CC(=O)CC[C@]4(C)[C@H]3CC[C@]12C | HRH2 (Homo sapiens, UniProt P25021) | cell-based activity |  |  | IC50 | 25.4 µM |
| CC1(C)S[C@@H]2[C@H](NC(=O)Cc3ccccc3)C(=O)N2[C@H]1C(=O)O | pbpG (Escherichia coli, UniProt P0AFI5) | binding, Bocillin-FL competition | Escherichia coli MG1655 live | 30 min, with: Tris-EDTA permeabilization | IC50 | < 1000 µM |
| COc1ccc(-c2ccc(Sc3cc(=O)n(O)c(=O)[nH]3)cc2)cc1 | Tripartite terminase subunit 3 C-terminal nuclease domain | endonuclease activity, ELISA |  |  | IC50 | 34 ± 1.3 µM |
| CC(=O)N[C@@H](CC(=O)O)C(=O)N[C@H]1CSSC[C@@H](C(=O)N[C@H](C(=O)N[C@@H](Cc2ccccc2)C(=O)N[C@@H](Cc2cnc[nH]2)C(N)=O)[C@@H](C)O)NC(=O)[C@H](Cc2c[nH]c3ccccc23)NC(=O)[C@H](C(C)C)NC(=O)[C@H](CC(C)C)NC(=O)[C@H](CCC(=O)O)NC(=O)CNC(=O)[C@H](CCCCN)NC(=O)[C@H](Cc2cnc[nH]2)NC(=O)[C@H](Cc2ccc(O)cc2)NC(=O)[C@H](C)NC1=O | IGHG1 | binding, SPR |  | pH 7.4, with: immobilized Herceptin | Kd | 0.267 ± 0.004 µM |
| CNc1nc(N2CCN(C)CC2)c2ccccc2n1 | SOS1 (Homo sapiens, UniProt Q07889) | binding |  |  | Kd | > 200 µM |
| CC(=O)N[C@@H](C)C(=O)N1CCC[C@H]1C(=O)N[C@@H](CC(=O)O)C(=O)N[C@H]1CSSC[C@@H](C(=O)N[C@H](C(=O)N[C@@H](Cc2ccccc2)C(=O)N[C@@H](Cc2c[nH]cn2)C(N)=O)[C@@H](C)O)NC(=O)[C@H](Cc2c[nH]c3ccccc23)NC(=O)[C@H](C(C)C)NC(=O)[C@H](CC(C)C)NC(=O)[C@H](CCC(=O)O)NC(=O)CNC(=O)[C@H](CCCCN)NC(=O)[C@H](Cc2c[nH]cn2)NC(=O)[C@H](Cc2ccc(O)cc2)NC(=O)[C@H](C)NC1=O | IGHG1 | binding, SPR |  | pH 7.4, with: immobilized Herceptin | Kd | 0.248 ± 0.003 µM |
| CCOP(=O)(OCC)Oc1nc(Cl)c(Cl)cc1Cl | Ache (Rattus norvegicus, UniProt P37136) | inhibitor |  |  | IC50 | 0.036 µM |
| COc1cc2c(cc1OC)C1CC(=O)C(CC(C)C)CN1CC2 (racemic) | Slc18a2 (Rattus norvegicus, UniProt Q01827) | radioligand binding | rat striatal homogenate | with: [3H]-(±)-cpd | Ki | 0.0013 ± 0.0001 µM |
| O=P(O)(O)C(F)(F)c1ccccc1 | PTPRC (Homo sapiens, UniProt P08575) |  |  | pH 7 | IC50 | > 10000 µM |
| CC(=O)NCC(=O)N1CCC[C@H]1C(=O)N[C@@H](C)C(=O)N[C@H]1CSSC[C@@H](C(=O)N[C@H](C(=O)N[C@@H](Cc2ccccc2)C(=O)N[C@@H](Cc2c[nH]cn2)C(N)=O)[C@@H](C)O)NC(=O)[C@H](Cc2c[nH]c3ccccc23)NC(=O)[C@H](C(C)C)NC(=O)[C@H](CC(C)C)NC(=O)[C@H](CCC(=O)O)NC(=O)CNC(=O)[C@H](CCCCN)NC(=O)[C@H](Cc2c[nH]cn2)NC(=O)[C@H](Cc2ccc(O)cc2)NC(=O)[C@H](C)NC1=O | IGHG1 | binding, SPR |  | pH 7.4, with: immobilized Herceptin | Kd | 0.762 ± 0.005 µM |
| CC(=O)N[C@H]1[C@@H](O[C@@H]2O[C@H](C[C@@H](O)[C@H]3O[C@@H](n4ccc(=O)[nH]c4=O)[C@H](O)[C@@H]3O)[C@H](O)[C@H](O)[C@H]2NC(=O)/C=C/CCCCCCCCCC(C)C)O[C@H](CO)[C@@H](O)[C@@H]1O | Undecaprenyl-phosphate alpha-N-acetylglucosaminyl 1-phosphate transferase (wecA, Escherichia coli, UniProt P0AC78) | enzyme activity, inhibitor |  |  | IC50 | 0.15 ± 0.008 µM |
| CC(=O)NCC(=O)N1CCC[C@H]1C(=O)N[C@@H](CC(=O)O)C(=O)N[C@H]1CSSC[C@@H](C(=O)N[C@H](C(=O)N[C@@H](C)C(=O)N[C@@H](Cc2c[nH]cn2)C(N)=O)[C@@H](C)O)NC(=O)[C@H](Cc2c[nH]c3ccccc23)NC(=O)[C@H](C(C)C)NC(=O)[C@H](CC(C)C)NC(=O)[C@H](CCC(=O)O)NC(=O)CNC(=O)[C@H](CCCCN)NC(=O)[C@H](Cc2c[nH]cn2)NC(=O)[C@H](Cc2ccc(O)cc2)NC(=O)[C@H](C)NC1=O | IGHG1 | binding, SPR |  | pH 7.4, with: immobilized Herceptin | Kd | 0.95 ± 0.004 µM |
| O=C(N[C@H](Cc1ccc(Cl)cc1)C(=O)N1CCC(Cn2cncn2)(C2CCCCC2)CC1)[C@H]1Cc2ccccc2CN1 | MC1R (Homo sapiens, UniProt Q01726) | cAMP production, agonist | A-375 |  | EC50 | 0.95 ± 0.025 µM |
| O=P(O)(O)C(F)(F)c1ccc2occc2c1 | PTPN1 (Homo sapiens, UniProt P18031) |  |  | pH 7 | IC50 | > 500 µM |
| Cn1c(Sc2cccc(Cl)c2)cc(=O)n(O)c1=O | Tripartite terminase subunit 3 C-terminal nuclease domain | endonuclease activity, ELISA |  |  | IC50 | 26 ± 2.6 µM |
